Published values of several laboratories.
Numbered parts are unrelated; each lists some results of a single study. Substitutions count along the parent as printed.

Sample 1 — target: CCNB2, cyclin fold, Cln2 fusion (human); method: yeast growth competition, sequencing; medium: yeast; notes: weak parent motif; reference: not given; reading: higher = stronger binding; measurement: normalised enrichment score
Parent: NPAT docking peptide (human); PCHRRVLCFDSTT
PCARRVLCFDSTT [H3A]: 0.0954
PCHRRVACFDSTT [L7A]: 0.089
PAHRRVLCFDSTT [C2A]: 0.355
ACHRRVLCFDSTT [P1A]: 0.00852
PCHRAVLCFDSTT [R5A]: 0.244
PCHRRVLCLDSTT [F9L]: 0.359
PCHRRVLAFDSTT [C8A]: 0.257

Sample 2 — method: protein binding microarray; molecule type: double-stranded DNA, one strand shown; medium: in vitro; concentration: not given; reference: not given; reading: higher = stronger binding; measurement: E-score
Target: Histone acetyltransferase KAT6A, winged helix 2, GST fusion (KAT6A, Homo sapiens, UniProt Q92794, residues 85-181)
Notes: 8-mer, flanks averaged, mean of 2 arrays, mostly near background
Construct (chain): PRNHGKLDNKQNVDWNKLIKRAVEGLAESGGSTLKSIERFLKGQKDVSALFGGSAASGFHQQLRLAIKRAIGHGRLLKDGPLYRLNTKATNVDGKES
ACCTGCAT: 0.168
GCACTGAA: -0.00148
CCCGACAC: 0.145
AACAGAAA: -0.027
GAATTATC: -0.0395
AATAACCA: -0.169
ACGTGTAC: -0.0987
AGGAGCGG: -0.0925
ACTGAGCA: -0.112
TAAGGCAA: -0.0361
ACACCGAG: 0.144
GCCTGTAA: -0.121
GACGCTGC: -0.0304
GAATGCAA: 0.0493
AGTACAAT: -0.0609
CGTCGCAA: 0.107
CCGTAACC: -0.0396
AGTATTAT: -0.101
GGGTGGAC: 0.0621
CTATCCGA: -0.207
GGCGAAAA: 0.121
AAGTTTCC: 0.0481
CAACATAG: -0.0523
GTGATAAA: 0.148
GTAGTCGA: -0.0522

Sample 3 — method: protein-binding microarray; molecule type: double-stranded DNA, one strand shown; medium: in vitro; concentration: 940 nM top; notes: 60-bp whole probe; added: salmon DNA 0.4 mg/ml; reference: random background probes; reading: higher = stronger binding; measurement: fitted relative affinity; shared flanks, not repeated: GCCTAGCAC … GTCTTGATTCGCTTGACGCTGCTG
Target: Interferon regulatory factor 5, full length, phosphomimetic (IRF5, Homo sapiens, UniProt Q13568-2, residues 1-514, S451D/S453D/S456D/S462D)
TCAACTTTCTTTCAAATACTGTGCTAG: 1.69 z-score
CTAGGTTTCGACACTGGGTTAGTGCTA: 6.98 z-score
GACGAACTGGACTATCGGGACGTGCTA: -0.149 z-score
GACGGTCTCCTTATCCTCACGTGCTAG: 0.361 z-score
GTCGAACTGGGGACTGGAGACGTGCTA: 0.0847 z-score
GAAGATTTCAGTCTCGAGACGTGCTAG: 1.6 z-score
TCACATCTCATATAAATAACTGTGCTA: 0.704 z-score
TTAGGTATCCGTTTCCTTTAGTGCTAG: 1.44 z-score
TCATGTGTCTTAAATAGGACTGTGCTA: -0.00139 z-score
TTAGGACTGCTTATCCTTGAGTGCTAG: -0.331 z-score
TCATGGCTGACTTTGGAACTGTGCTAG: -0.28 z-score
GACGGGCTGGGGTTTCGGGACGTGCTA: 1.75 z-score
GACGAACTGGGTATCGAGACGTGCTAG: 1.11 z-score
TAAGGTTTCGACTTTCGGTTAGTGCTA: 7.19 z-score
GCCCCTTTCCTTTGCCTCTGGTGCTAG: 1.01 z-score
TTAGGACTGGGACTCGGTTAGTGCTAG: -0.384 z-score

Sample 4 — method: RNA Bind-n-Seq; molecule type: RNA; medium: in vitro; concentration: 365 nM; reference: no-protein control; reading: higher = stronger binding; measurement: RBNS enrichment (R)
Target: RNA binding protein fox-1 homolog 2, RRM domain, GST-SBP tag (RBFOX2, Homo sapiens, UniProt O43251-10, residues 100-194)
Notes: natural RNA segment, single round, ends assumed
Shared flanks, not repeated: GGGAGUUCUACAGUCCGACGAUC … UGGAAUUCUCGGGUGCCAA
Target sequence (chain): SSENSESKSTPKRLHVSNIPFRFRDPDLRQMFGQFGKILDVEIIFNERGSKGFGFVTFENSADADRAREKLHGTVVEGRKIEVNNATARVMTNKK
UUUUGUUGUGCUUUUUUGUAACUGUUUUAAAUAAAUCAAUUUGUACUGUAUAUUUGUACUUUUGUGAGAUCCUUUUUGCUGUUUUACCAUUUUAAGUCUCUGUACUUGGC: 0.815
GCGCGGACUCUAGCCAGGCAGGGACACGUCUGGUGCCAGAACACGCAGCUGCCCACACGCAAGGUCAUGGCCCCAGCGGCCCCGGCACAUGGAGUGGUUCAGCGCGGCCU: 0.261
UUUUGCACUCAGCUUAUUACAGGUAGGUAGUGCUUAAGAAAAGUCAUGGAGGACUAAAGCCUAAGUCCUUUUCACUUUUCCUCCAUCUGAAGGUAGGUGAGUUCAUCCUC: 0.233
ACCAUUUGGAUUUUUUUAAAACAAAAGUAUUAAUAAUCUGGAAGACAGUGUUGCCCAGGUCAGGAGUGUUUUCUUGGUGGUUCCAGCCCCCAUCAAUUGAACUGUUUCUG: 0.481
UCCCUGGACACCUUGGUCUGGCUCUUGUGCCAAGGGCUGAAGGAGGUACCCUCUUGGCAGAUGGGGGCAUCACUUGCUUCCUUUGGGAAGCUCUAAGGUUGCUGCAGUCA: 0.408
AAUGAUGUAUGCCCACCUUUCAUUUCUGCUAUUCAAGUUUUGACUAUGUAUCUAGCUUGUGCAAAACCCUUAAGUAUGAGGGAUAGGACCCCCACCCAUGGGUUUACAUA: 0.763
UUCAGCGGAAGGCCUCACCACCCACAGUGUGAUCCUGAGGUGCCGCCAUUGGCGGUUCUGCUGCUUCGCUGCAGGGAUAAGGUGGAGCUACCGAACAGCUGAUUCAUAUG: 0.227
AAAUCACUUUUUAAUAUUUUUUGGUUGGUUAUUUCCCAAAUAAUCAACAUGUAAAUAAUCUUUUAAGAGCCAGUUCUGAUGCUUUACAUUAUUGCUACUUGAUUUUGUUA: 0.525
AGAAUAUCUUUCAGAAUAUGGUUUCACCAUGAAACAGGGGUGGUAGAUUUAUUCCCUUGUGUCAGGCCAAAGAAGUUCUUACAAAGUACAGUGGGUAGUGUCUAAAGCGA: 0.42
ACAGCUGACGGUUUCUCCCCGGACACUCGCCUACUAAGUACCCUUGGGGUGGUGCUGGGUCAUUACUUCUGAGCCCCAGCCCCAAUCCAGAGAAGCGCUGUUGCCCGCCC: 0.308
UAAAAACUGCAAGUCUUGAAGAUUUUUGGCAUUCUUUUAAGUAUUUAAACUUAAUCUUUAUAGCUGCCCCAUACAGUAAUCUAUGACCUCUCUGAAUCACUCUUCAAUCU: 0.373
ACAAAUAGUCUAUCAACCCCAGACACUGGUUUGAAGAAUGUUAAGACUUGACAGUGGAACUACAUUAGUACACAGCACCAGAAUGUAUAUUAAGGUGUGGCUUUAGGAGC: 1.52

Sample 5 — target: TEF, bZIP domain (human); method: DHFR protein complementation; medium: yeast; reference: wild-type JUN-FOS pair; reading: higher = stronger binding; measurement: binding fitness
Notes: single substitutions, most at no-binding floor
Parent: JUN, bZIP domain (human); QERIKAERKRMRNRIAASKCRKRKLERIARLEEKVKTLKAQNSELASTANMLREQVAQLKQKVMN; partner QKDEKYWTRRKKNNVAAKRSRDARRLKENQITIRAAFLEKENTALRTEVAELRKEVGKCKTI
K39N: -1.49 natural log
E32M: -1.41 natural log
K36W: -1.42 natural log
M51S: -1.3 natural log
L59T: -1.57 natural log
A40T: -1.29 natural log
N42P: -1.52 natural log
T48A: -1.32 natural log
Q41L: -1.45 natural log
L38V: -1.5 natural log
R53I: -1.48 natural log
K39Q: -1.03 natural log
S43T: -1.43 natural log
E32I: -1.38 natural log
T37C: -1.41 natural log
A40L: -1.48 natural log
A46R: -1.38 natural log
Q55D: -1.53 natural log
L31P: -1.5 natural log
V56H: -1.5 natural log

Sample 6 — method: DHFR PCA, deep sequencing; medium: yeast; added: (+)-ABA 4.8 µM; reference: wild-type fitted maximum; reading: higher = stronger binding; measurement: relative binding score
Target: ABI1, truncated, D143A, DHFR fusion (Arabidopsis thaliana)
Notes: methotrexate growth selection, single substitutions
Parent: PYL1, truncated, DHFR fusion (Arabidopsis thaliana); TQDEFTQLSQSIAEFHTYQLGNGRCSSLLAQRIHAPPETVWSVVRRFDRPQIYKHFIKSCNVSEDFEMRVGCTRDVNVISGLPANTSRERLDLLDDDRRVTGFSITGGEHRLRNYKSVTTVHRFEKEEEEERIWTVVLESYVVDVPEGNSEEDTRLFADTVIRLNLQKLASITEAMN
G108Q: -9.98%
P37G: -0.594%
M176E: 57.9%
F56K: -2.19%
V121I: 60.2%
L166M: 25.1%
T106R: 17.1%
P83A: 45.3%
V78Q: 0.584%
F56S: -7.55%
R46F: -22%
R123I: -0.112%
L82H: 17.3%
R32T: 73.3%
L82E: 7.25%

A few entries again (sample 1):
PAHRRVLCFDSTT [C2A]: 0.355
PCHRRVLAFDSTT [C8A]: 0.257
PCHRRVACFDSTT [L7A]: 0.089
ACHRRVLCFDSTT [P1A]: 0.00852
PCHRAVLCFDSTT [R5A]: 0.244
PCARRVLCFDSTT [H3A]: 0.0954
PCHRRVLCLDSTT [F9L]: 0.359
